Published values pooled from the literature.
Parts stem from different laboratories: compare values within a part only. Changes are numbered by the printed parent chain.

Set 1
Target: Ras GTPase-activating protein-binding protein 1, full length (G3BP1, Homo sapiens, UniProt Q13283)
Chain of UniProt Q13283 (whole entry, looked up): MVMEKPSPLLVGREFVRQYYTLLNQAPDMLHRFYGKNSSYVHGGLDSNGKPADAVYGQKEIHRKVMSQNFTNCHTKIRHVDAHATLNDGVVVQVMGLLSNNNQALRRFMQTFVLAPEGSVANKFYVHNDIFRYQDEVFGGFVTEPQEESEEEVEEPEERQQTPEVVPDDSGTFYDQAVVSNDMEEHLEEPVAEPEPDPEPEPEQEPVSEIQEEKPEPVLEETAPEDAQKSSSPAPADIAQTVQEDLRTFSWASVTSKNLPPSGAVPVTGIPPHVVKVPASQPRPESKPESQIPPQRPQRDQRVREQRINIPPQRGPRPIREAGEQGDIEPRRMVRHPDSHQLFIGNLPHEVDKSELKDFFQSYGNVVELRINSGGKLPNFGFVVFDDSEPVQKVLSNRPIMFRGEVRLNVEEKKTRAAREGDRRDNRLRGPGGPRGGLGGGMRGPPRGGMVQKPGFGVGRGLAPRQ
Method: RNA Bind-n-Seq
Form: RNA
Sample: in vitro
Concentration: 200 nM
Notes: whole 134-nt RNA, ends assumed
Together with: 150 mM KCl
Relative to: input library
Reading: higher = stronger binding
Shared flanks, not repeated: GGGAGUUCUACAGUCCGACGAUC … UGGAAUUCUCGGGUGUCAAGG
| Strand | log2 enrichment |
| --- | --- |
| UCAAGUCCUGUGCUACACAUCGUAUGUACCGAAUCGGGGAGGGGAGGGGUGGGGAAAGUAUUAUGUUACGCCGUUCGGAUCUGCACUUCC | 1.38 |
| AAGUCCUGUGCUACACAUCGUAUGUACCGAAUCGGGUUUGGGAAAGGGAAAAAGGGAAAGUAUUAUGUUACGCCGUUCGGAUCUGCACUU | 0.238 |
| UUUGCAGGGAGUGGUACGGGUAUCACUUUCCGGAGCUGGUGAAGAUCAUCAACGACAAUGCCACAUACUGCCGUCUUGCCCAGUUUAUUG | -0.432 |
| AGGUCAUGGAUCAAAAAGAACAUAAAUUGAAUGGGAAGGUGAUUGAUCCUAAAAGGGCCAAAGCCAUGAAAACAAAAGAGCCGGUUAAAA | -1.32 |
| UUCCUUUCCGUUGUGUGUUUUAAAGGUGUGUGCCCUCUUCCUGAUUCUGGAGAAAAAUGCCGGUCCGGAAGCAAGGUGAGAGUUUAUUCC | 0.138 |
| GUCCUGUGCUACACAUCGUAUGUACCGAAUCAAAUUUUUUUAAACCCAAACCCCCAAAAAAGUAUUAUGUUACGCCGUUCGGAUCUGCAC | -0.477 |
| ACCAUGCAGGAGGGCAUCUUUGGGAAGUGGGGCAAGGGGGGGAUAGGGAGGGGGGUAACACUUUGGGAACAGGUGGUCCCAGGUCGUUUC | 1.52 |
| AAGUCCUGUGCUACACAUCGUAUGUACCGAAUCGGGCCCCCGGCCCCCGGCCCCCGGAAAGUAUUAUGUUACGCCGUUCGGAUCUGCACU | -0.27 |
| CCUGUGCUACACAUCGUAUGUACCGAAUCGGGGUUUUUGGGGAAAAAGGGGAAAAAGGGGAAAGUAUUAUGUUACGCCGUUCGGAUCUGC | 0.134 |
| UAUUCCAAUGUCUGUGGGAAUAAUUGACACAAGGACGAAUCCAAGCCAGUUAAAUGCGGUUGAAUUUCUGUGGGACCCAGCAAAACGCAC | -0.0623 |
| UGGCCCUGGUGGCAUGCGGGGAGGAAGAGGUGGCCUCAUGGAGCGUGGUGGUCCCGGUGGAAUGUUCAGAGGUGGCCGUGGUGGAGACAG | 0.527 |
| UCUAUCCUGUCCCUCCACCCCACCCUCCACCUCAAUCCCCUCCCAUCUUCCCCAGACCUACCUCACCUACUAGGACCUGAGGCAGCUCCU | 0.627 |
| UCCUGUGCUACACAUCGUAUGUACCGAAUCGGGGUUUUUGGGGUUUGGGGAAAAAGGGGAAAGUAUUAUGUUACGCCGUUCGGAUCUGCA | 0.625 |
| UCCUCAAGUCCUGUGCUACACAUCGUAUGUACCGAAUCGGGUGGUGGGUGGGAAAGUAUUAUGUUACGCCGUUCGGAUCUGCACUUCCAG | 1.23 |

Set 2
Target: Interferon regulatory factor 5, full length, phosphomimetic (IRF5, Homo sapiens, UniProt Q13568-2, residues 1-514, K96S/S451D/S453D/S456D/S462D)
Method: protein-binding microarray
Form: double-stranded DNA, one strand shown
Sample: in vitro
Concentration: 250 nM
Notes: 60-bp whole probe
Together with: salmon DNA 0.4 mg/ml
Relative to: random background probes
Reading: higher = stronger binding
Shared flanks, not repeated: GCCTAGCAC … GTCTTGATTCGCTTGACGCTGCTG
| Strand | log fluorescence [z-score] |
| --- | --- |
| GACGATACCAGACTGGAGACGTGCTAG | 0.467 |
| GACGCTATCAGTCTCGAGACGTGCTAG | 1.69 |
| TTAGGTTTCCTTATGCTTTAGTGCTAG | 0.844 |
| GACGGTATCGGTCTCTGGACGTGCTAG | 5.23 |
| TCAACTTTCTTTTGCTTACTGTGCTAG | 2.85 |
| GACGGTCTCCCACTGCTGACGTGCTAG | -0.368 |
| TTAGGTATCCTTATCCGTTAGTGCTAG | 0.254 |
| TTAGGTTTCCCTTCCCTTTAGTGCTAG | 1.13 |
| TTAGGTTTCTGTTCCGGTTAGTGCTAG | 5.94 |
| TCATATATACACTTATGACTGTGCTAG | 0.524 |
| GACGGTATCGGTTTCGGGATGTGCTAG | 8.87 |
| GACGAACAGGGGACTGGAGACGTGCTA | -0.541 |
| TCCCCTCTCATTCCAATTCTGTGCTAG | -0.114 |
| TTTTCATTTTCTTTAACTCAGTGCTAG | 3.72 |
| GTATTTTTCTAAACCATTTTGTGCTAG | 1.35 |
| TTAGATCTCATTTTCGATTAGTGCTAG | 6.92 |
| GCCGGTATCGACTATCGGGACGTGCTA | 4.56 |
| AGTGATAACTTTTTTTTTTCGTGCTAG | 1.11 |
| TTAGCTATCAGACTGGATTAGTGCTAG | 0.389 |
| ACAGCAAGCAGGGCCAGCCCGTGCTAG | -0.785 |
| GTGTATATGTGATTAAAATAGTGCTAG | 0.4 |
| TACGGTTTCCTTCTCCTGACGTGCTAG | 0.922 |
| GACGATATCAGTCTCAAGACGTGCTAG | 1.22 |
| GACGGTTTCGTGACTGGGGACGTGCTA | 1.62 |
| TTAGGACTGCTTCTCCTTTTGTGCTAG | -0.313 |

Set 3
Target: RING finger protein unkempt homolog, zinc fingers 1-6, SBP tag (UNK, Homo sapiens, UniProt Q9C0B0, residues 30-357)
Chain of UniProt Q9C0B0 (30-357, looked up): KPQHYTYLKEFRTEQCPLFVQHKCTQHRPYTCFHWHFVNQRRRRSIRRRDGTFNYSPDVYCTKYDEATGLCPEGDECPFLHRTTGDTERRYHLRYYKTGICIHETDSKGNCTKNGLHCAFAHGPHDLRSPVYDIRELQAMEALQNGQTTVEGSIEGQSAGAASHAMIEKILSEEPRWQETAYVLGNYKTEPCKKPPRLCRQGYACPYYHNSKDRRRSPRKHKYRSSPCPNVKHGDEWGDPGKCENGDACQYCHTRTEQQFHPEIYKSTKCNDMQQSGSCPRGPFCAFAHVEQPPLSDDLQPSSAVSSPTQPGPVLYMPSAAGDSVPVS
Method: RNA Bind-n-Seq
Form: RNA
Sample: in vitro
Concentration: 100 nM
Notes: RNA with constant flanks, vertebrate orthologous sites, ends assumed
Relative to: input RNA pool
Reading: higher = stronger binding
Shared flanks, not repeated: GGGAGUUCUACAGUCCGACGAUC … CAACAGAGGAUUGAGCAUCA
| Strand | bound/input enrichment [ratio] |
| --- | --- |
| AAUAGUUUUAAGCUUGUUUGCACAGCUUUUAUUUUCCAUUGGAAAUGGAAUCCAUUGCCUUAGGUCUUUUUAAAUAGUGUAUUGUUAUCGUUGGGCUGGCUCUACGCUUGAAAUCCAGUU | 1.84 |
| CUGUAAACAGCUCAGGGCAGUAUCCUCCCUAUCCUCCAUACGGCAACCUUAAUCAGGGAUUAGCCAACACUUCAGGGAUGAGUCCCAACAUGAGCCUUACCACCAGCAGCAACAGCAACC | 0.284 |
| GUUGUGAUCCCUUUAACAUCCACAGAAAACUAUCAAAGAAAAACUUGCGAGCAAUUGACUUAGACGAUGCAGCUUUUCUAAGUGCCAAGUUUGGAAGGCAGUUUGUUCCUGGUUGGAAGC | 0.597 |
| UCGGUCCCCUGGGCUGGGACAGAUUUUUUUUAACGUCUUGAAAUUUAAAUUCUGUGCUUGUAGGAGACUGUAACCUUUUUGUCUUUUUUUUUUUAAACAAAACAACCUCCACCUCCAGUG | 0.394 |
| AAAUGGCUUCUGUUCUAGUAAGAAAAGUAAAUAUUGUCCUCUAAAUAUAAAACUCCUAAAUGGCUAUUUUUGAAAUUGAAAUAUUUGAAUAUCGUAAAUCAGCUGUUGCCACUUCACAAC | 0.551 |
| GCGAAAGGCCAGAUCCCCUCUGCCCUGCUACUGCUUCUACCAACCGGAAGCACAGAAAACUAGAAUCUCAUUGAUUUUGUUUUUAAAAAUACGUUGAUUUCUUGUAACAUCCAAUAGGAA | 0.261 |
| AGAAGAGCUGAGUAGAGUAAGGCCGUGUUUACUUAGAGCGUUUUUCCUUGCUUUAGUUUGCUAGCGUUUGGGUGGGUUGUGGCACACACCUUCUGAGGCAGGAGCUGUAGUGAGACCAUG | 0.793 |
| UGGGUUACUCCUAUUAUUAUCAAGUAGCUGGAAUUGUGAAGGUCGGAGUAGUUAGAUCUUUAGCUUUGAUUCCUUAUUUUUUUUUUUGUAUUACUAUCCAUGUGUAUAAAUUAUUGAUCA | 1.94 |
| ACAGGAGCAGCAUAGGCUGUUUGAACUUUGGGGAAACGAGCUUUGCUUUUUAUAUUUAACUAGGAUACUUUUACGUGAUGGGUGCUUUGAGUGUGAAUGCAGCAGGCUCUUGUUUCCGAG | 1.18 |
| UAUUUUCUUAUUUUAGGUAUCAUUGCCCAGUGCCCAAGAUCUUUUAUGUUCAGCUGACUGUAGGAAAUAAUGAAUUUUUUGGGGAAGGAAAGACUCGACAAGCUGCUAGACACAAUGCUG | 1.62 |
| UCCCCAUUACCCCUAAAGUAGAACAUUUUUUAAAUUGUGUUGCCACCACUUUUAAAAAUUUAGCAAUAUUAGAAUAGGAUACCAGUGAAGUAAGAAAUUUUGCUUGUUGUUUUGCAAACC | 5.04 |

Set 4
Target: ABI1, truncated, D143A, DHFR fusion (Arabidopsis thaliana)
Method: DHFR PCA, deep sequencing
Sample: yeast
Notes: methotrexate growth selection, single substitutions
Together with: (+)-ABA 4.8 µM
Relative to: wild-type fitted maximum
Reading: higher = stronger binding
Parent: PYL1, truncated, DHFR fusion (Arabidopsis thaliana); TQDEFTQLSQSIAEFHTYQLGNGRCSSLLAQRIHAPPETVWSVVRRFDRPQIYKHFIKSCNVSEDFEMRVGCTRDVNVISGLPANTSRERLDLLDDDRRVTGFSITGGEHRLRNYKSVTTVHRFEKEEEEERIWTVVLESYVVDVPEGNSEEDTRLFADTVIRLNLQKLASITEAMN; partner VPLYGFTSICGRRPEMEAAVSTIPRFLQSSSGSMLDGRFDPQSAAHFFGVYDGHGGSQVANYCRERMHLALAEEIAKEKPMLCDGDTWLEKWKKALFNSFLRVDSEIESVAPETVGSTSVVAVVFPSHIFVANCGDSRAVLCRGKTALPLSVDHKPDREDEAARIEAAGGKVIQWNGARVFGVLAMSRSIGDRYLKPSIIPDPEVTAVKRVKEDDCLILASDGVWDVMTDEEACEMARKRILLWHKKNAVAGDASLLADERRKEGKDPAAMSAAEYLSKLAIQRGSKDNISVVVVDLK
| Change | relative binding score [%] |
| --- | --- |
| V137R | -6.05 |
| N77L | 65.4 |
| A13M | 64.5 |
| L112I | -18.4 |
| D144A | -5.36 |
| V143W | -7.35 |
| R99Y | 92.4 |
| I52G | 37.5 |
| Y141R | -1.07 |
| N61D | 74.4 |
| L8E | 1.19 |
| E64D | 77.1 |
| E127G | 82.5 |
| L93G | -2.09 |
| G81R | 1.68 |
| L156V | 75.2 |

Set 5
Target: Sal-like protein 4, full length isoform A (SALL4, Homo sapiens, UniProt Q9UJQ4, residues 1-1053)
Chain of UniProt Q9UJQ4 (whole entry, looked up): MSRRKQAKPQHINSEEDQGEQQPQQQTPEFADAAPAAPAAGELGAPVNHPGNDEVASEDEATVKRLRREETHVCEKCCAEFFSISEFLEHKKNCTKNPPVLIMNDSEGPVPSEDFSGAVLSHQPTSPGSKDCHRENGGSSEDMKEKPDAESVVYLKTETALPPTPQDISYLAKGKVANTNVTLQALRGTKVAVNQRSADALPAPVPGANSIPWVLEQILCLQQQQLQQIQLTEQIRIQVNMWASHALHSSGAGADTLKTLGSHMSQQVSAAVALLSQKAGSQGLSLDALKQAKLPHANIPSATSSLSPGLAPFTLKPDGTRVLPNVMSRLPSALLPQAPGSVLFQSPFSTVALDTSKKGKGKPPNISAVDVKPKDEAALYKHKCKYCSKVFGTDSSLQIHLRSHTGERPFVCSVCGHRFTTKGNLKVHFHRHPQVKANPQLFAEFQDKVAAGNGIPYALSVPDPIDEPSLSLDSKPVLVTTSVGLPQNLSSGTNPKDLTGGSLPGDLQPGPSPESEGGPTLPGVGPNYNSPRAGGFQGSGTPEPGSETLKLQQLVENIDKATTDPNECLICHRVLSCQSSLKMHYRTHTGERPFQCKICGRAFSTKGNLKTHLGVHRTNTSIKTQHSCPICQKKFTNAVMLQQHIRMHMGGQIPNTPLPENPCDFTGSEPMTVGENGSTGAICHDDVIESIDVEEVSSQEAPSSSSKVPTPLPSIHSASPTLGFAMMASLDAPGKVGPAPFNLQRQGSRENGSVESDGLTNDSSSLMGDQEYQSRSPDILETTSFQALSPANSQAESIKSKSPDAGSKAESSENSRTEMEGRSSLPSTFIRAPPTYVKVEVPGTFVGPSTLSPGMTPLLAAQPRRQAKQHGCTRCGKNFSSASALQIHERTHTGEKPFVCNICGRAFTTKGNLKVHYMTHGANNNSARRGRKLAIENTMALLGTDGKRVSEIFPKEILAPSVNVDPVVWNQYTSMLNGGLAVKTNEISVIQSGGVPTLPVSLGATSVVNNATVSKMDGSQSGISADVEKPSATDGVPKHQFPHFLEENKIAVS
Method: universal PBM
Form: double-stranded DNA, one strand shown
Sample: in vitro
Concentration: 600 nM
Notes: 8-mer, flanks averaged, mean of replicates
Reading: higher = stronger binding
| Strand | E-score |
| --- | --- |
| GATAGATC | 0.0557 |
| AGGGCTCC | -0.339 |
| GAAGCCGA | -0.205 |
| TAAGTGAA | 0.194 |
| GATGATGC | -0.0396 |
| AGTTCTAA | 0.111 |
| ACCTTACC | -0.032 |
| ACTCAAGC | -0.0196 |
| AAGCACAA | 0.203 |
| AGACTCAC | -0.208 |
| CATTTTCG | 0.176 |
| CTTATAAA | 0.28 |
| AGTCTCGC | -0.148 |
| ACATAGCA | 0.201 |
| AGACACGG | -0.091 |

A few entries again (set 2):
| Strand | log fluorescence [z-score] |
| --- | --- |
| TTAGGTTTCCTTATGCTTTAGTGCTAG | 0.844 |
| GACGGTATCGGTCTCTGGACGTGCTAG | 5.23 |
| TCAACTTTCTTTTGCTTACTGTGCTAG | 2.85 |
| GACGGTCTCCCACTGCTGACGTGCTAG | -0.368 |
| TTAGGTATCCTTATCCGTTAGTGCTAG | 0.254 |
| TTAGGTTTCCCTTCCCTTTAGTGCTAG | 1.13 |
| TTAGGTTTCTGTTCCGGTTAGTGCTAG | 5.94 |
